Experimental data pooled from the literature.
Protocols differ between the studies behind these lines. ± gives the spread as reported.
Target: Tyrosine-protein kinase BTK (BTK, Homo sapiens, UniProt Q06187)
Chain of UniProt Q06187 (whole entry, looked up): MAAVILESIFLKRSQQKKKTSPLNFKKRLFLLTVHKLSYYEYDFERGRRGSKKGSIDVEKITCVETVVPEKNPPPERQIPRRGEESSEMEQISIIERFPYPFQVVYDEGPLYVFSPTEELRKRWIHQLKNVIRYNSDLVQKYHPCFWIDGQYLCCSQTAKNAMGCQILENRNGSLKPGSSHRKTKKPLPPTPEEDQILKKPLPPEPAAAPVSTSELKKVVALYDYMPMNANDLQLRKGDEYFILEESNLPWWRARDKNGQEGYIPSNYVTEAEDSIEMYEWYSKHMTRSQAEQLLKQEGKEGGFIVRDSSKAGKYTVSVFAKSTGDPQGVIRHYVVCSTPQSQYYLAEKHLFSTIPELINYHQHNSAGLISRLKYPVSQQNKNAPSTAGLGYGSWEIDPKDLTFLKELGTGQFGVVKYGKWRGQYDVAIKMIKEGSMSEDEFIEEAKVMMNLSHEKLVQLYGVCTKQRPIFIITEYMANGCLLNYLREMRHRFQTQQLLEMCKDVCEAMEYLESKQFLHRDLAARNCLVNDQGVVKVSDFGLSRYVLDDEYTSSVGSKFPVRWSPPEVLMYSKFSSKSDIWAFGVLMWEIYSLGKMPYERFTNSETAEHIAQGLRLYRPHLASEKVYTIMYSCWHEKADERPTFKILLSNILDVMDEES

CN(CC#CC(=O)N1CCC(n2c(=O)n(-c3ccc(Oc4ccccc4)cc3)c3c(N)ncnc32)C1)CCCCNC(=O)CCCC(=O)NCCCOCCOCCOCCCNC(=O)CCCCC1SCC2NC(=O)NC21 (stereo not drawn) — IC50 (enzyme activity, inhibitor, TR-FRET; added: 40 µM ATP): 4.7 nM
CN(C(=O)c1ccn2ncc(-c3ccc(C(N)=O)cc3)c2c1)c1ccc(C#N)cn1 — IC50 (enzyme activity, inhibitor): > 10000 nM
N=C(N)NCCC[C@@H]1NC(=O)[C@H](Cc2c[nH]c3ccccc23)NC(=O)[C@H](CCCNC(=N)N)NC(=O)[C@H](Cc2c[nH]c3ccccc23)NC(=O)[C@H](CCCNC(=N)N)NC(=O)[C@H](Cc2c[nH]c3ccccc23)NC(=O)[C@H](CCCNC(=N)N)NC(=O)[C@H](Cc2c[nH]c3ccccc23)NC(=O)[C@H](CCCNC(=N)N)NC(=O)[C@H](Cc2c[nH]c3ccccc23)NC(=O)[C@H](CCCNC(=N)N)NC(=O)[C@H](Cc2c[nH]c3ccccc23)NC1=O — IC50 (enzyme activity, inhibitor): < 250 nM
C=CC(=O)Nc1cccc(Cn2ncc3cnc(Nc4cnn(CCOC)c4)nc32)c1 — IC50 (enzyme activity, inhibitor, FRET): 4.42 nM
Nc1ncnc2c1c(-c1ccc(Oc3ccccc3)cc1)nn2C1CCCN(C(=O)C2CC(Br)=NO2)C1 (mixture of isomers) — IC50 (enzyme activity, inhibitor): 17 nM
N=C(N)NCCC[C@@H]1NC(=O)[C@H](Cc2c[nH]c3ccccc23)NC(=O)[C@H](CCCNC(=N)N)NC(=O)[C@H](Cc2c[nH]c3ccccc23)NC(=O)[C@H](CCCNC(=N)N)NC(=O)[C@H](Cc2c[nH]c3ccccc23)NC(=O)[C@H](CCCNC(=N)N)NC(=O)[C@H](Cc2c[nH]c3ccccc23)NC(=O)[C@H](CCCNC(=N)N)NC(=O)[C@H](Cc2c[nH]c3ccccc23)NC(=O)[C@H](CCCNC(=N)N)NC(=O)[C@H](Cc2c[nH]c3ccccc23)NC(=O)[C@H](CCCNC(=N)N)NC(=O)[C@H](Cc2c[nH]c3ccccc23)NC1=O — IC50 (enzyme activity, inhibitor): < 250 nM
N#CCC(=O)N1CCC[C@H]1Cn1nc(-c2ccc(Oc3ccccc3)cc2F)c2c(N)ncnc21 — IC50 (enzyme activity, inhibitor; 15 min preincubation, added: ATP 16 µM): 170 ± 50 nM
CC1=CC(C)=[N+]2C1=Cc1ccc(CCC(=O)NCCCN(C)CCCC(=O)N3CCC[C@@H](n4nc(-c5ccc(Oc6ccccc6)cc5)c5c(N)ncnc54)C3)n1[B-]2(F)F — Kd (binding, TR-FRET): 155 nM
COc1ccc(Nc2nc(N3CCOCC3)c3nc[nH]c3n2)cc1OC — Kd (binding, ITC): 5000 nM

For quick reference, copied from above:
CC1=CC(C)=[N+]2C1=Cc1ccc(CCC(=O)NCCCN(C)CCCC(=O)N3CCC[C@@H](n4nc(-c5ccc(Oc6ccccc6)cc5)c5c(N)ncnc54)C3)n1[B-]2(F)F — Kd (binding, TR-FRET): 155 nM
